Assay results from different studies.
Lines come from different studies, so protocols differ. “And” joins repeats or separate records; there may be more than shown. ± marks the error that the study gave.
Complement C3: Complement C3 (Homo sapiens, UniProt P01024)
UniProt P01024, sequence (whole entry, looked up): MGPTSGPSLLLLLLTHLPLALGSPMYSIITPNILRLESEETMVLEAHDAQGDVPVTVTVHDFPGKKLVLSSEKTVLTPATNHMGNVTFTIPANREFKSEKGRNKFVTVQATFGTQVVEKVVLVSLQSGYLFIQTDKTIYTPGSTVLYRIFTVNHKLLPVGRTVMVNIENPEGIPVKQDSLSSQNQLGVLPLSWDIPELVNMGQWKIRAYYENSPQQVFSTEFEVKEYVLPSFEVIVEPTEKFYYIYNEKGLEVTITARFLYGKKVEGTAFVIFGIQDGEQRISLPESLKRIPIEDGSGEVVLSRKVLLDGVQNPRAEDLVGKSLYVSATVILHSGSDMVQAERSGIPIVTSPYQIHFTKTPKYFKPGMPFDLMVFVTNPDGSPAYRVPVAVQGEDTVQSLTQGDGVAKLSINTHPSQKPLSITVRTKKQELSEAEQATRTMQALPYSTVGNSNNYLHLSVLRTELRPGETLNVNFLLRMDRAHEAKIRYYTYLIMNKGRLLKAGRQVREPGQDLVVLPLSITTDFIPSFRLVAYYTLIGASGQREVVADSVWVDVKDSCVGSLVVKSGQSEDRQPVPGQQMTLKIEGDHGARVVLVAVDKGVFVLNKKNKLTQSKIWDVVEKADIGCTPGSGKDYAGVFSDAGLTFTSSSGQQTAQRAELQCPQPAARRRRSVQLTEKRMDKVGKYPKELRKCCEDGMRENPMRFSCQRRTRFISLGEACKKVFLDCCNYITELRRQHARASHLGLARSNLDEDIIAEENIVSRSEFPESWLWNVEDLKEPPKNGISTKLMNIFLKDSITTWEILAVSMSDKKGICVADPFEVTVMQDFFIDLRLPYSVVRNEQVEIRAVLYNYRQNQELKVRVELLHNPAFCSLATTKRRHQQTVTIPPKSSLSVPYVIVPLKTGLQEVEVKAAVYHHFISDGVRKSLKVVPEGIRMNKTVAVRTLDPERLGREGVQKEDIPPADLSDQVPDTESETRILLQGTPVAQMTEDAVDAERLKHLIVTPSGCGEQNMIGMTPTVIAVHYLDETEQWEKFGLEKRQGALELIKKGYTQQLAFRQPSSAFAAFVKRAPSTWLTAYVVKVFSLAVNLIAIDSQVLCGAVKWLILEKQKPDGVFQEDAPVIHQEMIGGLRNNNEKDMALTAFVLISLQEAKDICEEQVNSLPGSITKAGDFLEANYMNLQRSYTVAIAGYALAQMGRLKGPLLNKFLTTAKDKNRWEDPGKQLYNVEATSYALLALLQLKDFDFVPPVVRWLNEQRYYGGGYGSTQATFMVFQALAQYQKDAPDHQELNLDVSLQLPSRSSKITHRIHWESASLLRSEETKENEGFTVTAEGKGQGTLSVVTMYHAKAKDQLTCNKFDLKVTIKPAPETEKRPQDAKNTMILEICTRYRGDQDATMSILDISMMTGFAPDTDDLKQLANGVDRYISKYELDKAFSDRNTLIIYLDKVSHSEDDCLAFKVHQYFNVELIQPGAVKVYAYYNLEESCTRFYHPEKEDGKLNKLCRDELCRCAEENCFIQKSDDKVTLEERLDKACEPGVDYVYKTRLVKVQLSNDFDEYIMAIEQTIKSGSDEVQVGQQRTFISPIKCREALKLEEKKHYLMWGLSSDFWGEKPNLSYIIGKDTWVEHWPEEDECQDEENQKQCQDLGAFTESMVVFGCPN
lecA: PA-I galactophilic lectin (lecA, Pseudomonas aeruginosa, UniProt Q05097)
UniProt Q05097, sequence (whole entry, looked up): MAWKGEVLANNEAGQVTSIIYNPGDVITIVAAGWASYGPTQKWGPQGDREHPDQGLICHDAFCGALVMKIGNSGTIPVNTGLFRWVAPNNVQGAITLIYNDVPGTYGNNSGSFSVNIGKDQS
TP53-binding protein 1 tandem tudor domain: TP53-binding protein 1, tandem tudor domain (Homo sapiens, UniProt Q12888)
UniProt Q12888, sequence (whole entry, looked up): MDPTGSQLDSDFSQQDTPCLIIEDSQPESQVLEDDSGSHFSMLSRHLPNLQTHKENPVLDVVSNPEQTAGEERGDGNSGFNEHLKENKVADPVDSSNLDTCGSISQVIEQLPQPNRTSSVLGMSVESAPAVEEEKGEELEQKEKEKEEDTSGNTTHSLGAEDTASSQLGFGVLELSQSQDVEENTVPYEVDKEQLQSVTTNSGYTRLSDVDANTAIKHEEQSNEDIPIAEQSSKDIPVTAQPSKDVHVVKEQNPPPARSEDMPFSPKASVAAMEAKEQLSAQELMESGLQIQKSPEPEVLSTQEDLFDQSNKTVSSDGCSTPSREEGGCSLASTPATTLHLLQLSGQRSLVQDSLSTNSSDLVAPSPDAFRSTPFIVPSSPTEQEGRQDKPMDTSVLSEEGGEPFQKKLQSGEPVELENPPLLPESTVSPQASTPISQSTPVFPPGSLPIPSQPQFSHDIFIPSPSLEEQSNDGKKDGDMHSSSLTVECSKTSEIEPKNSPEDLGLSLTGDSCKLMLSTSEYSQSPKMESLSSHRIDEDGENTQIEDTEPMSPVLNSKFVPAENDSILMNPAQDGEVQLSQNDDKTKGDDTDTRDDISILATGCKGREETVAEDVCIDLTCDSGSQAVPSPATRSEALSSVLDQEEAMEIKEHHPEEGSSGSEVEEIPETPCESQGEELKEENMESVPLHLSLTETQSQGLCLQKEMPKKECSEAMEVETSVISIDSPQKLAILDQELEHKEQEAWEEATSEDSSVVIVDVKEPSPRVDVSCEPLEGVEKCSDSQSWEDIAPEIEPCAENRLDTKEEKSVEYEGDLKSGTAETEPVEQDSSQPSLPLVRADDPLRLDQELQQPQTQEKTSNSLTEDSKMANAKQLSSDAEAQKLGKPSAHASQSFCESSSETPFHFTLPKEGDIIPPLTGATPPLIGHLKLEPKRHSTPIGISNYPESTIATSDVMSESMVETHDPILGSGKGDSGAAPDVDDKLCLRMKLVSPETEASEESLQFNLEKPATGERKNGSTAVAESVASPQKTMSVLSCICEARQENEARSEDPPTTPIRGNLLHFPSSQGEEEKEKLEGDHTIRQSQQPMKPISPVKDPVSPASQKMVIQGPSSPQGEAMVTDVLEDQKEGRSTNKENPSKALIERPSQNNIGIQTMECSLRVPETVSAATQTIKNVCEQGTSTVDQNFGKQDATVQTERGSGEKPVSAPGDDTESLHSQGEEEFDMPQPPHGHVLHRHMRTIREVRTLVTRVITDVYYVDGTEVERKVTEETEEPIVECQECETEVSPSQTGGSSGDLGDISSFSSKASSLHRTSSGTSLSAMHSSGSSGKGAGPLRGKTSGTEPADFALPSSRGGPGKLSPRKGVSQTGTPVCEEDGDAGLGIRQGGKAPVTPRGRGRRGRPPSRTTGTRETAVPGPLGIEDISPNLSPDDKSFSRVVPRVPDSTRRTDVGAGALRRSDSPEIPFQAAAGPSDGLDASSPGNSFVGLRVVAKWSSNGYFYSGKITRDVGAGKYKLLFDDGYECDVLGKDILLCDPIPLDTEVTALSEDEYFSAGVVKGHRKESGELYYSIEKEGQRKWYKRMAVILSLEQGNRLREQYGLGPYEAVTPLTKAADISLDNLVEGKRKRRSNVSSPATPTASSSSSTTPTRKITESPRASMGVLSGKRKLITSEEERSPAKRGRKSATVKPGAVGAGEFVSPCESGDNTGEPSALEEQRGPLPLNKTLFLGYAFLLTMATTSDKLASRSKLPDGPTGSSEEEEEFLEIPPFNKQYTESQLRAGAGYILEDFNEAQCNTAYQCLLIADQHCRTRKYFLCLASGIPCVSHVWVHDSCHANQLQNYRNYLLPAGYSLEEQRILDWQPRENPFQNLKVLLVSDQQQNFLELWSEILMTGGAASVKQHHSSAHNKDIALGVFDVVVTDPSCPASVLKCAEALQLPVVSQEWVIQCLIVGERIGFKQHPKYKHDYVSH
UniProt P63104, sequence (whole entry, unmodified, looked up): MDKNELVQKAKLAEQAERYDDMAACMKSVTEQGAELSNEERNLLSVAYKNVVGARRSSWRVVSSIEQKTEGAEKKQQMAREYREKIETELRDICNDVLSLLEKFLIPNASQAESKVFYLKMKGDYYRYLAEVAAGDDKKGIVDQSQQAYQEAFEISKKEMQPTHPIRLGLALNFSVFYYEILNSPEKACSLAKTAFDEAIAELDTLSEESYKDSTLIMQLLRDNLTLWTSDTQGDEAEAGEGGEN
UniProt P62993, sequence (whole entry, looked up): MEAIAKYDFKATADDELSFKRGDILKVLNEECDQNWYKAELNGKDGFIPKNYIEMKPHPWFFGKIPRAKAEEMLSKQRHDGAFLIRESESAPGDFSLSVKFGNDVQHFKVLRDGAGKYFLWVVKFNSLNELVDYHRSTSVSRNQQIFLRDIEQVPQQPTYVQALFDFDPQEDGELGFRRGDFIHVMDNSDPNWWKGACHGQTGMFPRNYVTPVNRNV
UniProt Q9NXA8, sequence (whole entry, unmodified, looked up): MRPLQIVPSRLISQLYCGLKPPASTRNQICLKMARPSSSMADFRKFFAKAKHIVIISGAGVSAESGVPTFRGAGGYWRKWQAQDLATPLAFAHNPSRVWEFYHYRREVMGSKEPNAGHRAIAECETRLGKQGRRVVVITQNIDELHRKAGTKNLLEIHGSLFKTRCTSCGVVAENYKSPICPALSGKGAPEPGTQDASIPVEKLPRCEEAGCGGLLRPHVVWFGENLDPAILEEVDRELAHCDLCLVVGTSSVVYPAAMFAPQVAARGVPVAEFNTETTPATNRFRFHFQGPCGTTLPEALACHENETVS
UniProt Q15109, sequence (whole entry, looked up): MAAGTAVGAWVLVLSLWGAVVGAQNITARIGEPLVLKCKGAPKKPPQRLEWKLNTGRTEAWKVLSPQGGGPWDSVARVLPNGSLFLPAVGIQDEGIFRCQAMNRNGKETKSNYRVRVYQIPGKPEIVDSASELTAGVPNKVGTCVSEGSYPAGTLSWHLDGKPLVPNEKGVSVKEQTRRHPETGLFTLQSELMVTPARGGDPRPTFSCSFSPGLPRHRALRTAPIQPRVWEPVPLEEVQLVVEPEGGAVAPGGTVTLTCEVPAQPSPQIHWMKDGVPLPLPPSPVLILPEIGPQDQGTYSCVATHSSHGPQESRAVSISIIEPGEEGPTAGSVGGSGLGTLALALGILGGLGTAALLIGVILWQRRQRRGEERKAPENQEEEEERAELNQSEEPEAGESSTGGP

| Compound | target | test | test system | setting | Kd |
| --- | --- | --- | --- | --- | --- |
| CC[C@H](C)[C@@H]1NC(=O)[C@H](Cc2ccc(OC)cc2)NC(=O)CC2(CCCCC2)SSC[C@@H](C(=O)N2CCC[C@H]2C(=O)N[C@@H](CCCN)C(=O)N[C@@H](Cc2ccc(O)c(I)c2)C(N)=O)NC(=O)[C@H](CC(N)=O)NC(=O)[C@H]([C@@H](C)O)NC1=O | Oxytocin receptor (OXTR, Homo sapiens, UniProt P30559) | binding, radioligand |  | cell membranes | 9.2e-05 µM |
| CC[C@H](C)[C@H](NC(C)=O)C(=O)N[C@H]1CSSC[C@@H](C(=O)N[C@@H](Cc2c[nH]c3ccccc23)C(N)=O)NC(=O)[C@H](CCCNC(=N)N)NC(=O)[C@H](Cc2c[nH]cn2)NC(=O)[C@H](C)NC(=O)CNC(=O)[C@H](Cc2c[nH]c3ccccc23)NC(=O)[C@H](CC(=O)O)NC(=O)[C@H](CCC(N)=O)NC(=O)[C@H](Cc2c[nH]c3ccccc23)NC(=O)[C@H](C(C)C)NC1=O | Complement C3 | surface plasmon resonance |  | 25 °C, two-state reaction model | 0.74 µM |
| C[C@H](NC(=O)[C@H](CCCCNCC(=O)O)NC(=O)[C@H](Cc1ccccc1)NC(=O)[C@H](CCC(=O)O)NC(=O)[C@@H](N)CC(=O)O)C(=O)N[C@@H](CC(=O)O)C(=O)N[C@@H](CCC(=O)O)C(=O)O | Advanced glycosylation end product-specific receptor (AGER, Homo sapiens, UniProt Q15109) | binding, fluorescence |  |  | 87 µM |
| CCOP(=O)(CC(=O)Nc1ccc(S(=O)(=O)N(CC(N)=O)c2ccc(N(CC(N)=O)S(=O)(=O)c3ccc(OC)cc3)c3ccccc23)cc1)OCC | Kelch-like ECH-associated protein 1 (KEAP1, Homo sapiens, UniProt Q14145) | binding, FP |  |  | 0.94 µM |
| CC[C@H](C)[C@H](NC(C)=O)C(=O)N[C@H]1CSSC[C@@H](C(=O)N[C@H](C(N)=O)[C@@H](C)O)NC(=O)[C@H](CCCNC(=N)N)NC(=O)[C@H](Cc2c[nH]cn2)NC(=O)[C@@H]2CCCN2C(=O)CNC(=O)[C@H](Cc2c[nH]c3ccccc23)NC(=O)[C@H](CC(=O)O)NC(=O)[C@H](CCC(N)=O)NC(=O)[C@H](Cc2cn(C)c3ccccc23)NC(=O)[C@H](C(C)C)NC1=O | Complement C3 | binding, ITC |  | pH 7.4 | 0.043 µM |
| CC1=CC(C)(C)Nc2c(C(=O)O)cccc21 | E3 ubiquitin-protein ligase CBL-C (Homo sapiens, UniProt Q9ULV8) | binding, NMR |  |  | 620 µM |
| CC(C)=CCC[C@](C)(O)[C@H]1CC[C@]2(C)[C@@H]1[C@H](O)C[C@@H]1[C@@]3(C)CC[C@H](O)C(C)(C)[C@@H]3CC[C@]12C | 14-3-3 protein zeta/delta (YWHAZ, Homo sapiens, UniProt P63104, R127A) | biolayer interferometry |  | R127A mutant | 228 ± 0.001 µM |
| Nc1ncnc2c1ncn2[C@@H]1O[C@H](CO)[C@@H](O[C@H]2O[C@H](CO)[C@@H](OP(=O)(O)O)[C@H](OP(=O)(O)O)[C@H]2O)[C@H]1O | Inositol 1,4,5-trisphosphate-gated calcium channel ITPR1, N-terminal region (Itpr1, Rattus norvegicus, UniProt P29994, del318-332/R504Q) | [3H]IP3 competition binding |  | N-terminal fragment R504Q | 0.345 µM |
| COC(=O)/C=C/c1ccc(OCCNS(=O)(=O)c2ccc(NC(C)=O)cc2)c(OC)c1 | CP (Tobacco mosaic virus, UniProt P69687) | binding, MST |  |  | 12.6 µM |
| N=C(N)NCCC[C@H](NC(=O)[C@@H]1CCCN1C(=O)[C@H](CC(N)=O)NC(=O)[C@H](CCCNC(=N)N)NC(=O)[C@@H]1CCCN1C(=O)[C@H](CCCCN)NC(=O)[C@H](CCCCN)NC(=O)[C@H](CCC(N)=O)NC(=O)[C@H](CC(=O)O)NC(=O)[C@@H](N)Cc1c[nH]c2ccccc12)C(=O)O | Neuropilin-1 (NRP1, Homo sapiens, UniProt O14786) | binding, ITC |  | pH 7.4 | 10 µM |
| Cc1ccc2c(c1Br)C(O)(CC(=O)c1ccc3c(c1)OCO3)C(=O)N2 (stereo not shown) | Uncharacterized protein (Trypanosoma brucei brucei, UniProt Q386Q8) | binding, surface plasmon resonance | Trypanosoma brucei | with: GlcNAc-1-P 100 µM | 2.35 ± 0.03 µM |
| O=C(COc1ccccc1)N[C@@H](Cc1cn(CCNC(=O)c2ccc(S[C@@H]3O[C@H](CO)[C@H](O)[C@H](O)[C@H]3O)cc2)nn1)C(=O)NCCO | lecA | binding, SPR |  |  | 10.3 µM |
| CCOC(=O)C1=CN([C@@H]2O[C@H](CO)[C@@H](O)[C@H]2O)C=CC1 | NAD-dependent protein deacylase sirtuin-5, mitochondrial (SIRT5, Homo sapiens, UniProt Q9NXA8, A86S) | binding, MST |  |  | 21.3 µM |
| CCc1cccc2c(C(=O)COC(=O)C34CC5CC(CC(Br)(C5)C3)C4)c[nH]c12 | KAI2 (Arabidopsis thaliana, UniProt Q9SZU7) | binding, fluorescence |  |  | > 250 µM |
| O=C(COCCc1ccccc1)N[C@@H](Cc1cn(CCNC(=O)c2ccc(S[C@@H]3O[C@H](CO)[C@H](O)[C@H](O)[C@H]3O)cc2)nn1)C(=O)NCCO | lecA | binding, SPR |  |  | 6.9 µM |
| O=C(NO)c1cnc(NC2(c3cccc(F)c3)CCCCC2)nc1 | MBLAC2 (Homo sapiens, UniProt Q68D91) | binding, competitor, chemoproteomic pulldown | SW-620 MV4-11 lysate | 1 h, 30 °C | 0.794 µM |
| CC(=O)N[C@@H](Cc1c[nH]c2ccccc12)C(=O)N[C@H]1CSSC[C@@H](C(=O)N[C@H](C(N)=O)[C@@H](C)O)NC(=O)[C@H](CCCNC(=N)N)NC(=O)[C@H](Cc2c[nH]cn2)NC(=O)[C@H](C)NC(=O)CNC(=O)[C@H](Cc2c[nH]c3ccccc23)NC(=O)[C@H](CC(=O)O)NC(=O)[C@H](CCC(N)=O)NC(=O)[C@H](Cc2c[nH]c3ccccc23)NC(=O)[C@H](C(C)C)NC1=O | Complement C3 | surface plasmon resonance |  | 25 °C, two-state reaction model | 0.5 µM |
| Cc1cc(C)cc(COc2cc3c(cc2OCc2cc(C)cc(C)c2)C2CC(O)CC(C)N2CC3)c1 (stereo not shown) | Rab GDP dissociation inhibitor beta (Homo sapiens, UniProt P50395) | binding, BLI |  |  | 46 µM |
| CC(C)(C)NCCCNC(=O)c1cccc(C(F)(F)F)c1 | TP53-binding protein 1 tandem tudor domain | isothermal titration calorimetry |  |  | 10 ± 1 µM |
| CC(C)C[C@H](NC(=O)[C@@H](NC(=O)[C@H](CCCCN(C)C)NC(=O)[C@H](CCCNC(=N)N)NC(=O)[C@H](Cc1c[nH]cn1)NC(=O)[C@H](CCCNC(=N)N)NC(=O)[C@H](CCCCN)NC(=O)[C@H](C)N)C(C)C)C(=O)N[C@@H](CCCNC(=N)N)C(=O)O | TP53-binding protein 1 tandem tudor domain | binding, tryptophan fluorescence |  | tandem Tudor domain | 1.3 µM |
| C[n+]1cc2cc3cc(ccc31)NC(=O)CCCCC(=O)Nc1ccc3c(c1)cc(c[n+]3C)C(=O)Nc1ccc3[nH]cc(c3c1)CCNC2=O | Pu22 G-quadruplex DNA | microscale thermophoresis |  |  | 0.09 ± 0.01 µM |
| CN1CCN(Cc2ccc(NC(=O)Nc3ccc(Oc4cc(NC(=O)C5CC5)ncn4)cc3)cc2C(F)(F)F)CC1 | 14-3-3 protein zeta/delta (YWHAZ, Homo sapiens, UniProt P63104) | binding |  |  | 2.29 µM |
| CC(=O)N[C@H](C(=O)N1CCC[C@H]1C(=O)N1CCC[C@H]1C(=O)N1C[C@@H]2C[C@H]1C(=O)N[C@@H](C(C)C)C(=O)N1CCC[C@H]1C(=O)N1C[C@@H](C[C@H]1C(=O)N[C@@H](CCCNC(=N)N)C(=O)N[C@@H](CCCNC(=N)N)C(=O)N[C@@H](CCCNC(=N)N)C(N)=O)OCC=CCO2)C(C)C | Growth factor receptor-bound protein 2, N-terminal SH3 domain (GRB2, Homo sapiens, UniProt P62993) | binding, tryptophan fluorescence | PBS | 21 °C | ~33 µM and 33.5 µM |
| CC[C@H](C)[C@H](NC(=O)[C@H](CCCNC(=N)N)NC(=O)NC[C@H](CCC(N)=O)NC(=O)NC[C@@H](NC(=O)NC[C@H](CCCNC(=N)N)NC(=O)NC[C@H](Cc1ccc2ccccc2c1)NC(=O)[C@H](CCCCN)NC(=O)[C@H](CCC(=O)O)NC(C)=O)C(c1ccccc1)c1ccccc1)C(=O)N[C@@H](C)C(N)=O | Histone chaperone ASF1A (Homo sapiens, UniProt Q9Y294) | binding, ITC |  | pH 7.5 | 7.9 µM |
| CC[C@H](C)[C@@H]1NC(=O)[C@H](CCC(N)=O)NC(=O)CNC(=O)[C@H]([C@@H](C)O)NC(=O)[C@H](Cc2c[nH]c3ccccc23)NC(=O)[C@H](CCCNC(=N)N)NC(=O)[C@H](C)NC(=O)[C@H](C(C)C)NC(=O)[C@H](CCCNC(=N)N)NC(=O)[C@@H]2CCCN2C(=O)[C@H](CCCNC(=N)N)NC(=O)[C@@H](Cc2c[nH]c3ccccc23)NC(=O)CSC[C@@H](C(=O)N[C@@H](CO)C(N)=O)NC(=O)[C@H](Cc2ccc(O)cc2)NC(=O)[C@H]([C@@H](C)CC)NC1=O | Plexin-B1 (Plxnb1, Mus musculus, UniProt Q8CJH3) | binding, surface plasmon resonance |  |  | no binding |
| O=C1c2sc(-c3ccc(N4CCC(CO)CC4)nc3F)nc2CCN1c1cccnc1 | TAR DNA-binding protein 43, aggregated (TARDBP, Homo sapiens, UniProt Q13148) | radioligand binding | FTLD-TDP type B brain homogenate |  | 0.025 ± 0.018 µM |
| O=C(COCc1ccccc1)N[C@@H](Cc1cn(CCNC(=O)c2ccc(S[C@@H]3O[C@H](CO)[C@H](O)[C@H](O)[C@H]3O)cc2)nn1)C(=O)NCCO | lecA | binding, ITC |  |  | 6.3 µM |
| OC[C@H]1O[C@@H](Oc2ccc(-c3cn([C@H]4[C@H](O)[C@@H](O)[C@H](c5cn([C@H]6[C@H](O)[C@@H](O)[C@H](n7cc(-c8ccc(O[C@@H]9O[C@H](CO)[C@H](O)[C@H](O)[C@H]9O)cc8)nn7)O[C@@H]6CO)nn5)O[C@@H]4CO)nn3)cc2)[C@H](O)[C@@H](O)[C@H]1O | lecA | binding, ITC |  | pH 7.5 | 0.087 µM |

Some of these lines once more:
| Compound | target | test | test system | setting | Kd |
| --- | --- | --- | --- | --- | --- |
| O=C1c2sc(-c3ccc(N4CCC(CO)CC4)nc3F)nc2CCN1c1cccnc1 | TAR DNA-binding protein 43, aggregated (TARDBP, Homo sapiens, UniProt Q13148) | radioligand binding | FTLD-TDP type B brain homogenate |  | 0.025 ± 0.018 µM |
| CC[C@H](C)[C@@H]1NC(=O)[C@H](Cc2ccc(OC)cc2)NC(=O)CC2(CCCCC2)SSC[C@@H](C(=O)N2CCC[C@H]2C(=O)N[C@@H](CCCN)C(=O)N[C@@H](Cc2ccc(O)c(I)c2)C(N)=O)NC(=O)[C@H](CC(N)=O)NC(=O)[C@H]([C@@H](C)O)NC1=O | Oxytocin receptor (OXTR, Homo sapiens, UniProt P30559) | binding, radioligand |  | cell membranes | 9.2e-05 µM |
| CCOP(=O)(CC(=O)Nc1ccc(S(=O)(=O)N(CC(N)=O)c2ccc(N(CC(N)=O)S(=O)(=O)c3ccc(OC)cc3)c3ccccc23)cc1)OCC | Kelch-like ECH-associated protein 1 (KEAP1, Homo sapiens, UniProt Q14145) | binding, FP |  |  | 0.94 µM |
